Assay results pooled from the literature.
Each numbered part is a random draw from the data of one study; scales do not carry over between parts.

Block 1
Target: Sal-like protein 4, full length isoform A (SALL4, Homo sapiens, UniProt Q9UJQ4, residues 1-1053)
Sequence of UniProt Q9UJQ4 (whole entry, looked up): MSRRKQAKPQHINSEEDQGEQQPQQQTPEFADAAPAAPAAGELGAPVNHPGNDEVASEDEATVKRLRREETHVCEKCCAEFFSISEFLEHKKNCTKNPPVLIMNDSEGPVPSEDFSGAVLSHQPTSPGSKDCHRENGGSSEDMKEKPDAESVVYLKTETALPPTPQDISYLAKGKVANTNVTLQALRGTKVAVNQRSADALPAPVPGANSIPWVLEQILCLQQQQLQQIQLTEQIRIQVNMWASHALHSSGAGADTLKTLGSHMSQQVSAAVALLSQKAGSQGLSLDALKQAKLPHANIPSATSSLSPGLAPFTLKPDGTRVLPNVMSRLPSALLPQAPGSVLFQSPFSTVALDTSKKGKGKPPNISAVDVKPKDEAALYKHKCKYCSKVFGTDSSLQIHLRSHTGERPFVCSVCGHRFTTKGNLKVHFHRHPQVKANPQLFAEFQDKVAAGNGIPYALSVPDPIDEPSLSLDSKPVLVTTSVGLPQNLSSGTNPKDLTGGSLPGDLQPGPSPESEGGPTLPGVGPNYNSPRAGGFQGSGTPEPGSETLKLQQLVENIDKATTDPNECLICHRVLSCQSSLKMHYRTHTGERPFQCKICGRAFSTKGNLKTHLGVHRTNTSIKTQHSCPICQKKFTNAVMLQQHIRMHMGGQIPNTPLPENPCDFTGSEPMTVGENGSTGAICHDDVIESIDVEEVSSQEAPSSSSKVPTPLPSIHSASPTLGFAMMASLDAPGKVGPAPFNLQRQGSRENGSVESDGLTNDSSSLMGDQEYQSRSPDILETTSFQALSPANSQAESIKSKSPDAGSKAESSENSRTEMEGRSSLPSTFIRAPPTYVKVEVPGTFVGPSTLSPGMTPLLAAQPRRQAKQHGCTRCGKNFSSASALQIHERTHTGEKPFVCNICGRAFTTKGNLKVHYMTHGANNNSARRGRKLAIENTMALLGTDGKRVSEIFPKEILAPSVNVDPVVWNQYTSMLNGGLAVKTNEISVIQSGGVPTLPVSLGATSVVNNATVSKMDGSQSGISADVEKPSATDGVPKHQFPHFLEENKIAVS
Method: universal PBM
Molecule type: double-stranded DNA, one strand shown
Matrix: in vitro
Concentration: 600 nM
Notes: 8-mer, flanks averaged, mean of replicates
Reading: higher = stronger binding
Endpoint: E-score
AGTCTCAC: 0.0161
ATACTATG: 0.254
AAAACTTC: 0.146
TAGAAGCA: 0.103
ACGGAATA: 0.125
CTCGGGAC: -0.237
GTACTCAA: 0.0931
CCTTCTTA: 0.00279
AGCCCGTC: -0.362
GTATGAAA: 0.285
AATAGTGT: 0.315
ACGGATCC: -0.307
CGCCACAG: -0.302
ACGTTCGC: -0.171
CCGATAAC: 0.0608
CAGGACTC: -0.297
CCCGGCGG: -0.45
CCGGACTA: -0.188

Block 2
Target: RNA binding protein fox-1 homolog 2, RRM domain, GST-SBP tag (RBFOX2, Homo sapiens, UniProt O43251-10, residues 100-194)
Method: RNA Bind-n-Seq
Molecule type: RNA
Matrix: in vitro
Concentration: 365 nM
Notes: natural RNA segment, single round, ends assumed
Relative to: no-protein control
Reading: higher = stronger binding
Endpoint: RBNS enrichment (R)
All sequences stand within: GGGAGUUCUACAGUCCGACGAUC … UGGAAUUCUCGGGUGCCAA
Construct (chain): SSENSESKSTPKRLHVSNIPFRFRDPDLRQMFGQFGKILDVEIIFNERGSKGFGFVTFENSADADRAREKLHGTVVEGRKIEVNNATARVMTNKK
GGGGCUCUGCCAUGUUACACUAAUUUGAAUAAGCUCUCCCUUUUUCUGUAGAGUUCCCAGCCUCAGUAAUGUUCCAGGCUGCUUCUUGUUCCUUUUCUACCCUUUCUAGU: 1.89
AGCAGACAUGGUGACCUGGUGGGAGACUUUAUUUAUCCAGUGUGGUGAUAGCAUGACCCUCCAUGCUUCUUACUGGUUAAUGCUAUUUCUCACAAUGAUGCAGAUUAGGA: 0.435
ACCUCUUUGGGGACAAGAGGAUUACAUCUCAGGCCAGCAAGAUCAGCUGCUUGAAGCUCUGUGUAAGAGCACUGCACUGACGGUUUGGAGACCUGAGCCUGGGUCCUGAC: 0.51
GCCAGCCAGCCACAUGCAGCUUUGCUGAUAAAUGGAUACCUUUUCACACCAUUUAUGAAAACAAAAUUUCAACUCUGUUGCCUGUUCUAUUUAAGAAAAAUUGCUGUUUC: 0.551
AAAACGGCAGCACCUCACGGCUGUCUUUCUAGGAUCCUCCAUUAUUCCUUAGAAGCAAGGACCUGGUCCAGUGGCGGUGCCUCAGUUCACACUCCCUCUGACGGACGGAC: 0.31
CCUGGACAGGCAGUCUAGGGGGUAUGGGAAUACACGGUGUGGUUGUUCAACUAUUUGCAAAGGUCAACCAAAUAGACCACAUGUUCGCAAAGUAUCAUCUGAGGAAAUUA: 0.281
UGUGAAUUCAUUACGAAGAAUGUUCGAGAGAAAGCAGGGGUCUAAUCCAAAAGAAAUGUCAUUAACCAAUACUCCAAGUCCUUGAGUUUUGUUAUAUCUGAACUAGUUGA: 0.752
AUUCCUUGAGACUCUUUAGCAUUAGUGCUCUGAGGUUAAAAGCAGUUCGGAAGACUCAUCUAGCCCUUGGGUGCUGACCAGCAGAGCUGCUAGUGGAUAUUGGAGUUACA: 0.247
AGGAUUCCAGGAAGAGGCCAUGUCUGUGCAGUCCUAGUUCCAGACAGGUGAGAAGCUCCAGGAACUACUGGCUACCUUGACAAGCUGGGUAAAUAGUUAUCAUUCUGGGU: 0.572
UGAAUCUAAAGUAAUUUGCUAACUAUUUUGAUUCUUCAGAGAACUACUAAUAAAAAUCUAAAAGGUAUGCCAUGCUGCCUUAACCUCUUUAUUUUGAAAAAUGGUUUGAC: 0.393
UGGGCCUUGGGCCAUGCAGUAUCAGCUUGACCUUGCAAGGUCAAGCUGAGGAGACUAAGUUAGCCAUGUGGGCAGUGAAGCAUGCCAAUGUGAUCAAUCCCUAGUAAAAG: 1.07
ACGUGUCCAGCCACUGCCUGCUGAGGGCACUGCAGGCUUGCUGGAGCACGCUGGAGCACAUCCUGUCCCAUGAGGGAGGAGGAGGAGCGUUGGCCUAACACUGGCUGUUU: 0.612

Block 3
Target: Prothrombin, mature alpha-thrombin (F2, Homo sapiens, UniProt P00734)
Method: aptamer microarray, sandwich
Molecule type: DNA with 2'F-ANA
Matrix: in vitro
Concentration: 200 nM
Notes: whole 15-mer aptamer, many near background
Together with: Cy3 exosite-II aptamer, 400 nM
Reading: higher = stronger binding
Endpoint: mean fluorescence intensity
Oligonucleotide: GGTTGGTGTGGTTGG
2'F-ANA at 2 6 8 12 15: 729 a.u.
2'F-ANA at 4 7 10 11 12 13 15: 92 a.u.
2'F-ANA at 1 3 5 6 7 9 11 14: 91.4 a.u.
2'F-ANA at 1 3 4 6 7 8 13 14: 72.4 a.u.
2'F-ANA at 2 12 14 15: 195 a.u.
2'F-ANA at 5 7 11 12 13: 110 a.u.
2'F-ANA at 3 4 7 8 9 15: 796 a.u.
2'F-ANA at 1 2 3 5 6 8 11 13: 51.5 a.u.
2'F-ANA at 1 4 5 7 9 12 15: 107 a.u.
2'F-ANA at 1 2 3 4 6 7 11 13 14: 53.6 a.u.
2'F-ANA at 4 5 7 9 11 15: 65.9 a.u.
2'F-ANA at 1 4 5 7 8 10 13 15: 48 a.u.
2'F-ANA at 3 6 7 14 15: 533 a.u.
2'F-ANA at 3 4 5 6 9 10 11 12 13: 53.3 a.u.
2'F-ANA at 1 3 4 6 7 8 9 10 12 14 15: 57.5 a.u.
2'F-ANA at 1 5 8 10 13 14 15: 44.1 a.u.
2'F-ANA at 1 2 3 4 6 7 9 10: 53.9 a.u.
2'F-ANA at 3 4 7 8 9 11 15: 640 a.u.
2'F-ANA at 1 9 10 11 14: 54.6 a.u.
2'F-ANA at 1 4 5 11 14: 47.6 a.u.
2'F-ANA at 1 2 3 6 7 8 12 14: 101 a.u.
2'F-ANA at 1 3 5 7 9 10 12 15: 53.5 a.u.
2'F-ANA at 1 4 5 10 12 13 15: 47 a.u.
2'F-ANA at 1 5 10 11 12: 47.6 a.u.
2'F-ANA at 5 6 7 8 11 14 15: 42.9 a.u.

Block 4
Target: Fragile X messenger ribonucleoprotein 1, C-terminal low-complexity region (Fmr1, Mus musculus, UniProt P35922)
Method: RNA Bind-n-Seq
Molecule type: RNA
Matrix: in vitro
Concentration: 200 nM
Notes: whole 134-nt RNA, ends assumed
Together with: 150 mM KCl
Relative to: input library
Reading: higher = stronger binding
Endpoint: log2 enrichment
All sequences stand within: GGGAGUUCUACAGUCCGACGAUC … UGGAAUUCUCGGGUGUCAAGG
UGGCCCUGGUGGCAUGCGGGGAGGAAGAGGUGGCCUCAUGGAUCGUGGUGGUCCCGGUGGAAUGUUCAGAGGUGGCCGUGGUGGAGACUG: -0.173
GCAGGAAGUAAAAACAAAUGGAAAUGCUUCGGAUAGUGGCAGGGGUGGGGGUUGCUAAGGAAAGGGUGGGAUGGGAGUGGGUAACGAGUU: 0.225
CCUCAAGUCCUGUGCUACACAUCGUAUGUACCGAAUCGGCGGGCGGGGCGGGAAAGUAUUAUGUUACGCCGUUCGGAUCUGCACUUCCAG: 0.626
CUGUGCUACACAUCGUAUGUACCGAAUCAAACCCCCCCAAAUUUUUUUAAACCCCCCCAAAAAAGUAUUAUGUUACGCCGUUCGGAUCUG: 0.358
UGGGAGGUGGAUUUUGUUUAUUUUUUUAGCUCAUUUCCAGGGGUGGGAAUUUUUUUUUAAUAUGUGUCAUGAAUAAAGUUGUUUUUAAAA: 0.288
CCUCAAGUCCUGUGCUACACAUCGUAUGUACCGAAUCGGGGCGGCGGCGGGGAAAGUAUUAUGUUACGCCGUUCGGAUCUGCACUUCCAG: 0.398
AGUCCUGUGCUACACAUCGUAUGUACCGAAUCGGGAAAGGGAAAAAGGGAAAAAGGGAAAGUAUUAUGUUACGCCGUUCGGAUCUGCACU: -0.198
UGGCCCUGGUGGCAUGCGGGGAGGAAGGGGUGGCCUCAUGGAUCGUGGUGGUCCCGGUGGAAUGUUCAGAGGUGGCCGUGGUGGAGACAG: 0.711
UGCCUGGCCCAGUGCUGGGUUUGCCUUGUUGACGAUGCGCUUGGAUUGUUAAGGACACCGAUGUUCAGAACCCGGGAAGAGUCAUCUUAA: -1.97
GUCCUGUGCUACACAUCGUAUGUACCGAAUCGGGGUUUUUGGGGAAAAAGGGGAGGGGAAAGUAUUAUGUUACGCCGUUCGGAUCUGCAC: 0.508
AAGUCCUGUGCUACACAUCGUAUGUACCGAAUCGGGGCCCCGGGCCCCGGCCCCGGAAAGUAUUAUGUUACGCCGUUCGGAUCUGCACUU: -0.801
CUCAAGUCCUGUGCUACACAUCGUAUGUACCGAAUCGGGUUGGGGUUGGUUGGAAAGUAUUAUGUUACGCCGUUCGGAUCUGCACUUCCA: 0.327
CUGUGCUACACAUCGUAUGUACCGAAUCGGAAAAAAAGGGAAAAAAAGGGGAAAAAAAGGGAAAGUAUUAUGUUACGCCGUUCGGAUCUG: -0.878
CCUCAAGUCCUGUGCUACACAUCGUAUGUACCGAAUCGGGGUGGUGGGGUGGGAAAGUAUUAUGUUACGCCGUUCGGAUCUGCACUUCCA: 1.01

Repeated from above (block 1):
CAGGACTC: -0.297
ACGGATCC: -0.307
CCCGGCGG: -0.45
CCGATAAC: 0.0608
CGCCACAG: -0.302
AGCCCGTC: -0.362
AATAGTGT: 0.315
CCGGACTA: -0.188
AAAACTTC: 0.146
ATACTATG: 0.254
ACGGAATA: 0.125
